Experimental data collected from several papers.
Parts stem from different laboratories: compare values within a part only. Positions count from the first letter of the parent shown.

Block 1 — method: DHFR PCA, deep sequencing; sample: yeast; together with: (+)-ABA 0.0091 µM; reference: wild-type fitted maximum; direction: higher = stronger binding; measurement: relative binding score
Target: ABI1, truncated, D143A, DHFR fusion (Arabidopsis thaliana)
Setting: methotrexate growth selection, single substitutions
Parent: PYL1, truncated, DHFR fusion (Arabidopsis thaliana); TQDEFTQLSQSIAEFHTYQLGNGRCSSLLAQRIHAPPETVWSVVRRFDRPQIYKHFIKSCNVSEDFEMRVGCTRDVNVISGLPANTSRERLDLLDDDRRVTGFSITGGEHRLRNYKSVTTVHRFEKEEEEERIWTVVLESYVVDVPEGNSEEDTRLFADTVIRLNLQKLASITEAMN
Variant = K126C; result = 49.7%
Variant = V143R; result = -2.93%
Variant = E129S; result = 41.7%
Variant = L164C; result = 5.81%
Variant = M176V; result = 7.62%
Variant = Q51H; result = 12.3%
Variant = T135Y; result = -13.9%
Variant = L29G; result = -0.0468%
Variant = E14H; result = 7.89%
Variant = E64V; result = 7.31%
Variant = F5D; result = 5.35%
Variant = G107P; result = -9.23%
Variant = T106I; result = 101%
Variant = Q10I; result = -0.698%
Variant = K168T; result = 0.353%
Variant = Y53T; result = 3.61%

Block 2 — method: RNA Bind-n-Seq; form: RNA; sample: in vitro; tested at: 1 µM; setting: whole 134-nt RNA, ends assumed; together with: 150 mM KCl; reference: input library; direction: higher = stronger binding; measurement: log2 enrichment
Target: Ras GTPase-activating protein-binding protein 1, C-terminal RGG region (G3BP1, Homo sapiens, UniProt Q13283)
UniProt Q13283, sequence (whole entry, looked up): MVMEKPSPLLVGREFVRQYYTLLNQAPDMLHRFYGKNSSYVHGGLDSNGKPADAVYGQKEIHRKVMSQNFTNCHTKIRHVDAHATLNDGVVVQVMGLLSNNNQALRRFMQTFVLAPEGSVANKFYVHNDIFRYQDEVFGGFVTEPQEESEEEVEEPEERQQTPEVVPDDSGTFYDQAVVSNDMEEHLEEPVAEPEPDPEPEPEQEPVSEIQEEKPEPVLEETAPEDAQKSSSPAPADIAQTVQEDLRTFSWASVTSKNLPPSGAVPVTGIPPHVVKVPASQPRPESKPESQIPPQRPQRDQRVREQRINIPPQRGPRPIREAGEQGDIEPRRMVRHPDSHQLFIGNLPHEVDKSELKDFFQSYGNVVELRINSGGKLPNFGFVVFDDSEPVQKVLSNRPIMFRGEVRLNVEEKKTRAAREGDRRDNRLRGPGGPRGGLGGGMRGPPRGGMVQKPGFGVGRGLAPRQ
Oligonucleotide = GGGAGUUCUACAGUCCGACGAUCGUCCUGUGCUACACAUCGUAUGUACCGAAUCGGGAAAGGGAAAAAAAGGGUUUUUGGGAAAGUAUUAUGUUACGCCGUUCGGAUCUGCACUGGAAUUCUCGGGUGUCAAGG; result = -0.388
Oligonucleotide = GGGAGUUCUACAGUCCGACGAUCACCAUGCAGGUGGGCAUCAUUGGGAAGUGGGGCAAGGGGGGGAUAGGGAGGGGGGUAACACUUUGGGAACAGGUGGUCCCAGGUCGUUUCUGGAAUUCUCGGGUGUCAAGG; result = -1.18
Oligonucleotide = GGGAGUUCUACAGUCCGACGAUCAAGUCCUGUGCUACACAUCGUAUGUACCGAAUCGGUUUUGGGGUUUUGGUUUUGGGAAAGUAUUAUGUUACGCCGUUCGGAUCUGCACUUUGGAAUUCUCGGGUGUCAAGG; result = -1.34
Oligonucleotide = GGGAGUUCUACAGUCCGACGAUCGAAAGAAGUAAAAACAAAUGGAAAUGCUUCGGAUAGUGGCAGGGGUGGGGGUUGCUAAGGAAAGGGUGGGAUGGGAGUGGGUAAAGAGUUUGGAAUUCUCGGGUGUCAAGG; result = 1.56
Oligonucleotide = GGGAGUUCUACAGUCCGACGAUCUGGGAGGUGGAUUUUGUUUAUUUUUUUAGCUCAUUUCCAGGGGUGGGAAUUUUUUUUUAAUAUGUGACAUGAAUAAAGUUGUUUUUGAAAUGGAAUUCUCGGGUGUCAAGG; result = 3.73
Oligonucleotide = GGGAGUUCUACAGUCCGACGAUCGCAGGAAGUAAAAACAAAUGGAAAUGCUUCGGAUAGUGGCAGGGGUGGGGGUUAAAAAGGAAAGGGUGGGAUGGGAGUGGGUAAAGAGUUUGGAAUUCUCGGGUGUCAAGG; result = 1.92
Oligonucleotide = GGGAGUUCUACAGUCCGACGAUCUCCUGUGCUACACAUCGUAUGUACCGAAUCGGGUUUUUUUGGGUUUUUGGGAAAAAGGGAAAGUAUUAUGUUACGCCGUUCGGAUCUGCAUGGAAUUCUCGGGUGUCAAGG; result = -0.626
Oligonucleotide = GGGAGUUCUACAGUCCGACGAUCUGGGAGGUGGAUUUUGUUUAUUCUUUUAGCUCAUUUCCAGGGGUGGGAAUUUUUUUUUAAUAUGUGUCAUGAAUAAAGUUGUUUUUGAAAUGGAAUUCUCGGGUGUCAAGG; result = 3.23
Oligonucleotide = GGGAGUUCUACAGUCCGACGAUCGCAGGAAGUAAAAACAAAUGGAAAUGCUUCGGAUAGUGGCAGGGGUGGGGGUUGCUAAGGAAAGGGUGGGAUGGGAGUUGGUAAAGAGUUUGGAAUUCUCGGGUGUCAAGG; result = 2.3
Oligonucleotide = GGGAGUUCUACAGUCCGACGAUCUGCUCUUCACCAAGGAGGACGAGCCUGGCCGCUGCGACGUCCUGAGGAACCCCCUCUACCUCCAGAGUGUGAAGCUGCAGGAAGGUAAGCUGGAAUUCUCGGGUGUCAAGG; result = -0.762

Block 3 — method: protein-binding microarray; form: double-stranded DNA, one strand shown; sample: in vitro; tested at: 940 nM top; setting: 60-bp whole probe; together with: salmon DNA 0.4 mg/ml; reference: random background probes; direction: higher = stronger binding; measurement: fitted relative affinity; constant ends, left off below: GCCTAGCAC … GTCTTGATTCGCTTGACGCTGCTG
Target: Interferon regulatory factor 5, full length, phosphomimetic (IRF5, Homo sapiens, UniProt Q13568-2, residues 1-514, S451D/S453D/S456D/S462D)
Oligonucleotide = GACGGTATCGGACTGGGTACGTGCTAG; result = 2.6 z-score
Oligonucleotide = TTAGGTATCCCTTTCCTTTAGTGCTAG; result = 1.35 z-score
Oligonucleotide = TCAATTATTGCTTCCTCACTGTGCTAG; result = 0.523 z-score
Oligonucleotide = TTAGGTATCCACACTGGGTTAGTGCTA; result = -0.0221 z-score
Oligonucleotide = GACTGACTGGGTATCGGGACGTGCTAG; result = 0.969 z-score
Oligonucleotide = GACGGTTTCGGTATCTGGACGTGCTAG; result = 12 z-score
Oligonucleotide = GACCGTATCCTTTTCCTGACGTGCTAG; result = 1.1 z-score
Oligonucleotide = TTAGGTCTTGGTCTCGGTTAGTGCTAG; result = 2.97 z-score
Oligonucleotide = TCAACTTTCTACTTCTCACTGTGCTAG; result = 2.19 z-score
Oligonucleotide = TCAACTCTGAACCTTCAGACTGTGCTA; result = -0.305 z-score
Oligonucleotide = TTAAGTATCGGTCTCGGTTAGTGCTAG; result = 10.1 z-score
Oligonucleotide = CCCTGTCTGTCCAGAAACCCGTGCTAG; result = 0.216 z-score
Oligonucleotide = GACGAACTGGGTACTGGAGACGTGCTA; result = -0.141 z-score
Oligonucleotide = TTAGATATCAGTCTGGATTAGTGCTAG; result = -0.325 z-score
Oligonucleotide = GACGGTTTCGGTCTCAGGACGTGCTAG; result = 13.5 z-score
Oligonucleotide = TCAAATATATATATTGTACTGTGCTAG; result = 0.0541 z-score
Oligonucleotide = TCACATTTACATTTTAGACTGTGCTAG; result = 0.816 z-score
Oligonucleotide = TGAGGTTTTCTAATGTTTTTGTGCTAG; result = 0.644 z-score

Block 4 — target: CCND3, cyclin fold, Cln2 fusion (human); method: yeast growth competition, sequencing; sample: yeast; setting: weak parent motif; reference: not given; direction: higher = stronger binding; measurement: normalised enrichment score
Parent: CDC25A docking peptide (human); PPHRRRLLFACSP
Variant = PPHRRRLNFACSP [L8N]; result = 0.125
Variant = PPGRRRLLFACSP [H3G]; result = 0.107
Variant = PMHRRRLLFACSP [P2M]; result = 0.118
Variant = PPHRRRLLFSCSP [A10S]; result = 0.105
Variant = PPHRRRLMFACSP [L8M]; result = 0.16
Variant = PPHRRRHLFACSP [L7H]; result = 0.111
Variant = QPHRRRLLFACSP [P1Q]; result = 0.089
Variant = PPHRRRLLMACSP [F9M]; result = 0.136
Variant = PPHRRRLLFATSP [C11T]; result = 0.043
Variant = PFHRRRLLFACSP [P2F]; result = 0.157
Variant = PPHRHRLLFACSP [R5H]; result = 0.164
Variant = PPARRRLLFACSP [H3A]; result = 0.0933
Variant = PPHRDRLLFACSP [R5D]; result = 0.033
Variant = PPHRRRLFFACSP [L8F]; result = 0.156
Variant = PYHRRRLLFACSP [P2Y]; result = 0.141
Variant = PPHRRRPLFACSP [L7P]; result = 0.0733
Variant = PPHRRNLLFACSP [R6N]; result = 0.171
Variant = PPHRTRLLFACSP [R5T]; result = 0.125

For quick reference, copied from above (block 2):
Oligonucleotide = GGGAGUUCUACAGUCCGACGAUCGAAAGAAGUAAAAACAAAUGGAAAUGCUUCGGAUAGUGGCAGGGGUGGGGGUUGCUAAGGAAAGGGUGGGAUGGGAGUGGGUAAAGAGUUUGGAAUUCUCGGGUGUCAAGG; result = 1.56
Oligonucleotide = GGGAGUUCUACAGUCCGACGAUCUGGGAGGUGGAUUUUGUUUAUUUUUUUAGCUCAUUUCCAGGGGUGGGAAUUUUUUUUUAAUAUGUGACAUGAAUAAAGUUGUUUUUGAAAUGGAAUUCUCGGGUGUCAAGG; result = 3.73
Oligonucleotide = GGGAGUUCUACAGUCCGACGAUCGCAGGAAGUAAAAACAAAUGGAAAUGCUUCGGAUAGUGGCAGGGGUGGGGGUUAAAAAGGAAAGGGUGGGAUGGGAGUGGGUAAAGAGUUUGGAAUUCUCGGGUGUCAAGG; result = 1.92
Oligonucleotide = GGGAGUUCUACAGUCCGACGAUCUCCUGUGCUACACAUCGUAUGUACCGAAUCGGGUUUUUUUGGGUUUUUGGGAAAAAGGGAAAGUAUUAUGUUACGCCGUUCGGAUCUGCAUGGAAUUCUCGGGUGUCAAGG; result = -0.626
Oligonucleotide = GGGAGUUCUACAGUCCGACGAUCUGGGAGGUGGAUUUUGUUUAUUCUUUUAGCUCAUUUCCAGGGGUGGGAAUUUUUUUUUAAUAUGUGUCAUGAAUAAAGUUGUUUUUGAAAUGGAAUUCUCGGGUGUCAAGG; result = 3.23
Oligonucleotide = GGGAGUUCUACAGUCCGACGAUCGCAGGAAGUAAAAACAAAUGGAAAUGCUUCGGAUAGUGGCAGGGGUGGGGGUUGCUAAGGAAAGGGUGGGAUGGGAGUUGGUAAAGAGUUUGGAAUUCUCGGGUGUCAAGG; result = 2.3
